Results from different studies.
Each numbered part is a random draw from the data of one study; scales do not carry over between parts.

Block 1 — method: protein-binding microarray; form: double-stranded DNA, one strand shown; medium: in vitro; tested at: not given; direction: higher = stronger binding
Target: Hepatocyte nuclear factor 3-beta, forkhead domain (FOXA2, Homo sapiens, UniProt Q9Y261, residues 142-269)
Notes: k-mer, scored over probes, only values ≥0.25
Target sequence (chain): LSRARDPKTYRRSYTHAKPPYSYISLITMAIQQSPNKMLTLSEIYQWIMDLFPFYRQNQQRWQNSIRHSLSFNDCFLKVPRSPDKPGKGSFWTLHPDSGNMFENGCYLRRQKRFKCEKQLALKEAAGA
| Oligonucleotide | E-score |
| --- | --- |
| AATATGGT | 0.277 |
| TATGTTAA | 0.339 |
| ATACACAT | 0.359 |

Block 2 — method: protein binding microarray; form: double-stranded DNA, one strand shown; medium: in vitro; tested at: not given; relative to: not given; direction: higher = stronger binding
Target: Histone acetyltransferase KAT6A, both winged helices, GST fusion (KAT6A, Homo sapiens, UniProt Q92794, residues 1-181)
Notes: 8-mer, flanks averaged, mean of 2 arrays, mostly near background
Residues (chain): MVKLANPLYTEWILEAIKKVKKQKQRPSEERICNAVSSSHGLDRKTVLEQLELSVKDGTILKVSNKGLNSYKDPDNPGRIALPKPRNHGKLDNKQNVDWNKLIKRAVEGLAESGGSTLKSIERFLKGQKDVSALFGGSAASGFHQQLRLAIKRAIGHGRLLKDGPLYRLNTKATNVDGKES
| Oligonucleotide | E-score |
| --- | --- |
| GGCGAACC | 0.26 |
| CGTCAATA | 0.111 |
| ATGCCTGG | -0.251 |

Block 3 — method: aptamer microarray, sandwich; form: DNA with 2'F-ANA; medium: in vitro; tested at: 200 nM; added: Cy3 exosite-II aptamer, 400 nM; direction: higher = stronger binding; oligonucleotide: GGTTGGTGTGGTTGG
Target: Prothrombin, mature alpha-thrombin (F2, Homo sapiens, UniProt P00734)
Notes: whole 15-mer aptamer, many near background
| Modification | mean fluorescence intensity |
| --- | --- |
| 2'F-ANA at 4 5 7 8 11 12 | 134 a.u. |
| 2'F-ANA at 3 4 11 13 15 | 513 a.u. |
| 2'F-ANA at 1 2 4 6 7 9 14 15 | 51 a.u. |
| 2'F-ANA at 2 3 4 5 6 9 10 11 14 15 | 52.8 a.u. |
| 2'F-ANA at 2 3 5 7 8 10 11 12 14 | 48.5 a.u. |

Other studies, line by line
| Substance | target | assay | system | conditions | scale | measurement | result |
| --- | --- | --- | --- | --- | --- | --- | --- |
| PhoQ, residues 284 288 289 292 302 303 GASLAW | PhoP, residues 12 14 15 18 19 QWHVF (Escherichia coli, UniProt P23836) | Sort-seq, item: YFP reporter | E. coli | PhoQ-PhoP variant library, added: 10 µM Mg2+ | relative to: high Mg2+ state, higher = stronger signaling | fold induction | 0.829 |

Some of these lines once more (block 3):
| Modification | mean fluorescence intensity |
| --- | --- |
| 2'F-ANA at 4 5 7 8 11 12 | 134 a.u. |
